# Published values collected from several papers.
# “And” joins repeats or separate records; there may be more than shown. ± gives the spread as reported.
SMILES,cell line,assay,test system,conditions,scale,quantity,result
CC(C)[C@H](NC(=O)[C@H](CCCNC(=N)N)NC(=O)[C@@H]1CCCN1C(=O)[C@@H](NC(=O)[C@H](C)NC(=O)[C@H](Cc1ccc(O)cc1)NC(=O)[C@H](CCC(N)=O)NC(=O)[C@H](CCCCN)NC(=O)[C@H](CCCNC(=N)N)NC(=O)[C@@H]1CCCN1C(=O)[C@H](CCC(=O)O)NC(=O)[C@@H](NC(=O)[C@H](C)N)[C@@H](C)O)[C@@H](C)O)C(=O)N[C@@H](Cc1ccccc1)C(=O)N[C@@H](Cc1c[nH]c2ccccc12)C(=O)N[C@H](C(=O)N[C@@H](CC(=O)O)C(=O)N[C@@H](C)C(=O)N1CCC[C@H]1C(=O)NCC(=O)NCCOCCOCCOCCOCCOCCOCCOCCOCCOCCOCCOCCOCCC(=O)N[C@@H](CS)C(N)=O)[C@@H](C)O,BEAS-2B bronchial epithelial,"cell binding, phage binding, measured: output/input phage",,"10 min, 37 °C",relative to: control phage,selectivity ratio,1.3 ± 1.2
COc1ccc(NC(=O)c2ccc3[nH]c(-c4ccc(N(C)C)cc4)nc3c2)cn1,HCT116,IncuCyte,,"concentration not given, 12 (unit not given)",,PI-positive cells,40.9 count and 25.8 count and 17 count
CC(C)C[C@H](NC(=O)[C@H](CC(=O)O)NC(=O)CNC(=O)[C@@H](N)CCCNC(=N)N)C(=O)N[C@@H](C)C(=O)N[C@H](C(=O)N[C@@H](CC(C)C)C(=O)N[C@@H](CCCNC(=N)N)C(=O)N[C@@H](CCC(N)=O)C(=O)N[C@@H](CC(C)C)C(=O)N[C@@H](C)C(=O)N[C@@H](CCC(N)=O)C(=O)N[C@@H](CCC(=O)O)C(=O)N[C@@H](CC(=O)O)C(=O)NCC(=O)N[C@H](C(=O)N[C@H](C(=O)NCC(=O)N[C@H](C(=O)N[C@@H](CCCNC(=N)N)C(=O)NCCOCCOCCOCCOCCOCCOCCOCCOCCOCCOCCOCCOCCC(=O)N[C@@H](CS)C(N)=O)C(C)C)C(C)C)C(C)C)[C@@H](C)O,Huh-7 liver cancer,phage binding,,,relative to: targeting over control phage,selectivity ratio,2.9 ± 1.6
CC(C)(C)C(=O)OCOP(=O)(OCOC(=O)C(C)(C)C)C1CCCN(O)C1=O (stereo not drawn),U-251,,,,,CC50,> 100 µM
COc1ccccc1-c1ccncc1C(=O)Nc1nnc(OCc2ccc(Cl)cc2)s1,DLD-1 parental (BRCA2 WT),,,"0.5 µM, average of 3 runs",relative to: untreated,colony survival,97.1%
Cc1cc(-c2ccc(S(=O)(=O)C3CC(C(=O)NC4(C#N)CC4)N(C(=O)C4(C(F)(F)F)CC4)C3)c(C(F)(F)F)c2)ccn1 (stereo not drawn),MDA-MB-231,annexin V/7-AAD flow cytometry,,"concentration not given, together with: ionizing radiation 10 Gy",,apoptotic cells,increased
O=C(C[Se]C(=O)c1cc2ccccc2o1)Nc1cccc(C(F)(F)F)c1,NCI60 CNS subpanel,NCI60 five-dose screen,,,,CC50,6.12 µM
Cc1cc(Oc2nc(N3CC[C@@H](c4ccncc4)C3)ncc2F)[nH]n1,THP-1,cell proliferation,blood cancer,,,IC50,67.6 µM
Cc1cc(=O)oc2cc(OCCCCCC[Se]C#N)ccc12,MIA PaCa-2,"cell growth or viability, SRB",,,,GI50,4 µM
CC(=O)NCSC[C@H](NC(=O)[C@@H]1CCCN1C(=O)[C@H](C)NC(=O)[C@@H](NC(=O)CNC(=O)[C@@H](NC(=O)[C@H](Cc1c[nH]c2ccccc12)NC(=O)[C@H](C)NC(=O)CNC(=O)[C@H](CO)NC(=O)[C@H](C)NC(=O)[C@@H]1CCCN1C(=O)[C@H](Cc1c[nH]c2ccccc12)NC(=O)[C@H](C)NC(=O)[C@H](C)NC(=O)[C@@H](N)Cc1ccc(O)cc1)[C@@H](C)O)[C@@H](C)O)C(=O)N[C@@H](CO)C(=O)N[C@@H](C)C(=O)NCC(=O)N[C@H](C(=O)NCCOCCOCCOCCOCCOCCOCCOCCOCCOCCOCCOCCOCCC(=O)N[C@@H](CS)C(N)=O)[C@@H](C)O,H1975 lung adenocarcinoma,"cell binding, phage binding, measured: output/input phage",,"10 min, 37 °C",relative to: control phage,selectivity ratio,0.57 ± 0.25
Cc1c(Cl)cccc1Nc1ccccc1C(=O)[Se]CC(=O)Nc1cccc(C(F)(F)F)c1,NCI60 breast subpanel,NCI60 five-dose screen,,,,CC50,10.2 µM
NC(=S)N/N=C/c1ccc(OCc2ccccc2)cc1,IMR-32,measured: GPX3,,"300 µg/mL, 24 h",higher = more activity,glutathione peroxidase activity (OD450),0.124 a.u.
CC(C)C[C@H](NC(=O)[C@H](CCC(=O)O)NC(=O)[C@@H](N)Cc1ccccc1)C(=O)N[C@@H](CCC(=O)O)C(=O)N[C@@H](CCCNC(=N)N)C(=O)N[C@@H](CCCNC(=N)N)C(=O)N[C@@H](Cc1ccccc1)C(=O)N[C@@H](CCCCN)C(=O)N[C@@H](CCC(N)=O)C(=O)N[C@@H](CCC(N)=O)C(=O)O,HCT-116,CCK-8,,0.625 µM,relative to: vehicle,viability,99.5% and 100% and 99.4%
CC(C)CC(O)(CC(C)C)c1cn(C(=O)N2CCCC2)nn1,mouse T-cells,"SILAC proteomics, measured: Serf2",,"1 nM, 6 h, single peptides, unit not given",relative to: DMSO,protein level,0.97 and 1.13
O=C(C[Se]C(=O)c1ccco1)Nc1cccc(C(F)(F)F)c1,NCI60 colon subpanel,NCI60 five-dose screen,,,,GI50,6.07 µM
O=C(O)c1ccc(-c2nc(-c3ccccc3Cl)c3sccn23)cc1,HEL,flow cytometry,,0.1 mM,,CD41-positive cells,65%
CCCNC(=O)[C@H]1O[C@@H]1C(=O)N[C@H](C(=O)N1CCC[C@H]1C(=O)OCC1=C2C(C)=CC(C)=[N+]2[B-](C)(C)n2c(C)cc(C)c21)[C@@H](C)CC,MDA-MB-231,,,72 h,relative to: dark EC50 over light EC50,phototoxicity index,30
O=C(C[Se]C(=O)c1cc2ccccc2[nH]1)Nc1cccc(C(F)(F)F)c1,NCI60 breast subpanel,NCI60 five-dose screen,,,,CC50,11.1 µM

# Some of these lines once more:
SMILES,cell line,assay,test system,conditions,scale,quantity,result
COc1ccccc1-c1ccncc1C(=O)Nc1nnc(OCc2ccc(Cl)cc2)s1,DLD-1 parental (BRCA2 WT),,,"0.5 µM, average of 3 runs",relative to: untreated,colony survival,97.1%
Cc1cc(Oc2nc(N3CC[C@@H](c4ccncc4)C3)ncc2F)[nH]n1,THP-1,cell proliferation,blood cancer,,,IC50,67.6 µM
